Measured values of several laboratories.
Compare with care: the assays were run in different laboratories. Several values in a cell are separate wells, animals, samples, runs or records. ± gives the spread as reported.

Structure (SMILES) = O=CCNCCOn1c(=O)n(OCCNCCO)c(=O)n(OCCNCCOn2c(=O)n(OCCNCCO)c(=O)n(OCCNCCO)c2=O)c1=O; cell line = HUVEC; assay = cell growth or viability, MTT; conditions = 48 h; measurement = IC50; value = 7.6 µg/mL
Structure (SMILES) = O=C1NC2(CC2)COc2ncc(F)cc2[C@H]2COCCN2c2ccn3ncc1c3n2; cell line = CHL; assay = chromosomal aberration test; conditions = 150 µg/mL, 4 h, with rat liver S9; measurement = polyploid cells; value = 0%
Structure (SMILES) = N#Cc1ccc(Nc2nc(N)cc(Oc3ccc(-c4cccc(F)c4)cc3F)n2)cc1; cell line = MT4 uninfected; measurement = CC50; value = 13900 ± 2700 nM
Structure (SMILES) = COc1ccc(Cn2c(=O)n(O)c(=O)c3ccccc32)cc1; cell line = MDCK; system = Caco-2; conditions = 10 µM; measurement = Papp A→B; value = 26.5 ×10⁻⁶ cm/s
Structure (SMILES) = CC(C)NCCCn1c(Sc2cc(Cl)cc(Cl)c2)nc2c(N)ncnc21; cell line = MDA-MB-468; assay = cytotoxicity, Alamar blue; conditions = 72 h; measurement = IC50; value = 107 nM
Structure (SMILES) = CC[C@H](C)C(=O)O[C@H]1C[C@@H](C)C=C2C=C[C@H](C)[C@H](CC[C@@H]3CC=CC(=O)O3)[C@H]21; cell line = T84; assay = MTT; conditions = 1 and 20 µM, 24 h; measurement = viability; value = no effect
Structure (SMILES) = COc1ccc(Cn2cc(CCO[C@@H]3O[C@H]4[C@H](OC[C@H]4O)[C@H]3O)nn2)cc1; cell line = CAL-51; assay = cytotoxicity, CellTiter-Glo; conditions = up to 30 µM, 72 h; measurement = viability; value = not toxic
Structure (SMILES) = N=C(N)NCCC[C@@H]1NC(=O)[C@H](CCCNC(=N)N)NC(=O)[C@@H](CCCNC(=N)N)NC(=O)[C@@H](CCCNC(=N)N)NC(=O)[C@@H](Cc2ccc3ccccc3c2)NC(=O)[C@H](Cc2c[nH]c3ccccc23)NC(=O)[C@@H](Cc2ccc3ccccc3c2)NC1=O; cell line = HEKa; assay = cell growth or viability, MTS; conditions = 200 µg/mL, 24 h; measurement = viability; value = 47 to 50%
Structure (SMILES) = C=C(NC(=O)c1csc(-c2nc3c(cc2O)-c2nc(cs2)C(=O)NC(C(C)O)C(=O)NC(=C(C)OC)c2nc(cs2)C(=O)NC2c4nc(cs4)C(=O)NC(COC(=O)c4c5c6c(cccc6n4O)COC(=O)C(OC4CC(C)(O)C(N(C)C)C(C)O4)C2OC5)c2nc-3cs2)n1)C(N)=O (stereo not drawn); cell line = human hepatocytes; assay = measured: CYP1A2; conditions = concentration not given, 3 days; how to read = relative to: negative control; measurement = mRNA level; value = < 4 fold
Structure (SMILES) = O=c1c2sccc2n(CC2COc3ccccc3O2)c(=O)n1O (stereo not drawn); cell line = MDCK; system = Caco-2; conditions = 10 µM; measurement = Papp A→B; value = 4.4 ×10⁻⁶ cm/s
Structure (SMILES) = CN(CCC#N)c1nc(NCC[C@H]2CCCN2C)nc2sc(-c3ccccc3)cc12; cell line = RRCK (MDCK); measurement = Papp; value = 3.1 ± 0.4 ×10⁻⁶ cm/s
Structure (SMILES) = COCCc1ccc(OCC(O)CNC(C)C)cc1 (stereo not drawn); cell line = MDCK; system = Caco-2; conditions = 5 µM, 90 min, pH 7.4; measurement = efflux ratio; value = 0.82
Structure (SMILES) = COc1cc(N2CCN(C(=O)C3CCCN3)CC2)ccc1Nc1ncc(Cl)c(Nc2ccccc2P(C)(C)=O)n1 (stereo not drawn); cell line = NCI-H3122; assay = cell growth or viability, CCK-8; conditions = 10 nM, 48 h; measurement = viability; value = 77% and 64%
Structure (SMILES) = CN1CCCNC(=O)c2cccc(c2)C(=O)NCCCN(C)CCCNc2cccc3c2C(=O)c2cccc(c2C3=O)NCCC1; cell line = Ca9-22; assay = cell growth or viability, CCK-8; conditions = 15 nM, 48 h; measurement = viability; value = 90.9%
Structure (SMILES) = O=c1c2ccccc2n(CC2CC2)c(=O)n1O; cell line = MDCK; system = Caco-2; conditions = 10 µM; measurement = Papp B→A; value = 7.3 ×10⁻⁶ cm/s
Structure (SMILES) = O=c1[nH]cccc1[C@H](CO)Nc1nc(N2C[C@@H]3C[C@H]2CO3)c2cc(-c3ccccc3)sc2n1; cell line = RRCK (MDCK); measurement = Papp; value = 12.5 ± 0.5 ×10⁻⁶ cm/s
Structure (SMILES) = CC(C)(O)Cn1nc(-c2ccccc2)c2c(Cl)c(-c3ccccc3)nnc21; cell line = MDCK (wild-type); conditions = 10 µM, 1 h, pH 7.4; measurement = Papp (A to B); value = 20 ×10⁻⁶ cm/s
Structure (SMILES) = N=C(N)NCCC[C@@H]1NC(=O)[C@H](CCCNC(=N)N)NC(=O)[C@@H](CCCNC(=N)N)NC(=O)[C@@H](CCCNC(=N)N)NC(=O)[C@@H](C(c2ccccc2)c2ccccc2)NC(=O)[C@H](Cc2c[nH]c3ccccc23)NC(=O)[C@@H](C(c2ccccc2)c2ccccc2)NC1=O; cell line = HEKa; assay = cell growth or viability, MTS; conditions = 100 µg/mL, 24 h; measurement = viability; value = > 90%
Structure (SMILES) = O=S(=O)(NCc1ccncc1)c1ccc(C2CCCCC2)cc1; cell line = human bone marrow cells; assay = granulocyte-macrophage colony formation; conditions = 14 d; measurement = EC50; value = > 1000 nM
Structure (SMILES) = Cc1cc(-c2ccc(C#N)cc2)cc(C)c1Oc1ccnc(Nc2ccc(C#N)cc2)n1; cell line = MT4 uninfected; measurement = CC50; value = 2080 ± 720 nM
Structure (SMILES) = N#Cc1c(N)nc2c(c1-c1ccc(CO)o1)Cc1cc(O)ccc1-2; cell line = Raji; assay = cytotoxicity, CellTiter-Glo; conditions = 96 h; measurement = IC50; value = > 100000 nM

Repeated from above:
Structure (SMILES) = CC(C)NCCCn1c(Sc2cc(Cl)cc(Cl)c2)nc2c(N)ncnc21; cell line = MDA-MB-468; assay = cytotoxicity, Alamar blue; conditions = 72 h; measurement = IC50; value = 107 nM
Structure (SMILES) = CC[C@H](C)C(=O)O[C@H]1C[C@@H](C)C=C2C=C[C@H](C)[C@H](CC[C@@H]3CC=CC(=O)O3)[C@H]21; cell line = T84; assay = MTT; conditions = 1 and 20 µM, 24 h; measurement = viability; value = no effect
